# Measured values collected from several papers.
# Protocols differ between the studies behind these lines. Values joined by “and” are separate records of one study, mostly repeats; a detail may differ.
# CA1: Carbonic anhydrase 1 (CA1, Homo sapiens, UniProt P00915)
# Chain of UniProt P00915 (whole entry, looked up): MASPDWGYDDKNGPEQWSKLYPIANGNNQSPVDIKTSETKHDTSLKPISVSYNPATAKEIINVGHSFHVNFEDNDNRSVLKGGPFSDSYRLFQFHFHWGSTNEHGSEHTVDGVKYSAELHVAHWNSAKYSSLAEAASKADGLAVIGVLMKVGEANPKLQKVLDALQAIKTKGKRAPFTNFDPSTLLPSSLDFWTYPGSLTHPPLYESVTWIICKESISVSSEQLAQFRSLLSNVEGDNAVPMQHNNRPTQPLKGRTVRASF
# TMEM97: Sigma intracellular receptor 2 (TMEM97, Homo sapiens, UniProt Q5BJF2)
# Chain of UniProt Q5BJF2 (whole entry, looked up): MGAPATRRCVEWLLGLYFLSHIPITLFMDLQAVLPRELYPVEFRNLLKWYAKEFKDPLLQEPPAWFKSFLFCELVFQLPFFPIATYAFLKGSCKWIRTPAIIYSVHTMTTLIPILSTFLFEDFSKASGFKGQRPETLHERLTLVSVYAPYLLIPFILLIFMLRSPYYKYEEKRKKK
# FURIN: Furin (FURIN, Homo sapiens, UniProt P09958)
# Chain of UniProt P00742 (whole entry, looked up): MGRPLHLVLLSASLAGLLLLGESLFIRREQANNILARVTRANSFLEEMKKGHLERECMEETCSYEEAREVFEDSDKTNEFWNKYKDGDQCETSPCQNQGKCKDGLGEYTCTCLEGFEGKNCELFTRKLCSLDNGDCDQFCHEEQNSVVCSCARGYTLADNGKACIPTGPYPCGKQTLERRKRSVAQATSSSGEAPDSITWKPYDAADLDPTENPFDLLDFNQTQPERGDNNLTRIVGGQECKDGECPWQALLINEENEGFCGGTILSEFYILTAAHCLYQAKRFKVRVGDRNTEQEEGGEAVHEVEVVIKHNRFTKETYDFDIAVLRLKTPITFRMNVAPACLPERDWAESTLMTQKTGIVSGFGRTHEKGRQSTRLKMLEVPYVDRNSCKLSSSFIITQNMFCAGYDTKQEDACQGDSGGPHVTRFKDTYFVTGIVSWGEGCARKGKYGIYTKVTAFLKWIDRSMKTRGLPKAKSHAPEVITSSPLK
# Chain of UniProt P09958 (whole entry, looked up): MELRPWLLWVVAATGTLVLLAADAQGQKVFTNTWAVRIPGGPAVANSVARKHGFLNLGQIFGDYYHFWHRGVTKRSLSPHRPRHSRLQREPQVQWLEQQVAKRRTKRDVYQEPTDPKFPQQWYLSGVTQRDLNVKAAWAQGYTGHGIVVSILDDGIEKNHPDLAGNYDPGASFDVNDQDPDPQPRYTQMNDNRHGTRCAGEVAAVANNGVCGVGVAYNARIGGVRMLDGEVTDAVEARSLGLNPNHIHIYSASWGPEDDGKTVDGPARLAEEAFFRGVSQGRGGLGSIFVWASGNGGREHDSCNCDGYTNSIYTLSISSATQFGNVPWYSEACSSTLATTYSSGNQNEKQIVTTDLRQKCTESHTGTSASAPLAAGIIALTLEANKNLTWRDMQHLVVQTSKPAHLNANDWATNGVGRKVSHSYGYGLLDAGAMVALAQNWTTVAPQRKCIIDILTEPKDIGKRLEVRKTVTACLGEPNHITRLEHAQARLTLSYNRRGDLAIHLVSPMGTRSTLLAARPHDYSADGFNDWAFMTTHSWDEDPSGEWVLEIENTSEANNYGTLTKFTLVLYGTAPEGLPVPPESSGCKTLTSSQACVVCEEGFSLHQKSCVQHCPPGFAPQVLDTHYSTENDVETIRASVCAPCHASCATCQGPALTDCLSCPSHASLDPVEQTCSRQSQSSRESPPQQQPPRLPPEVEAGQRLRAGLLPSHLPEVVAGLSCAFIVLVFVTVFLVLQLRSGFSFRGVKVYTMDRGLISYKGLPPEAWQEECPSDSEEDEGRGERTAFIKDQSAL
# Chain of UniProt P22303 (whole entry, looked up): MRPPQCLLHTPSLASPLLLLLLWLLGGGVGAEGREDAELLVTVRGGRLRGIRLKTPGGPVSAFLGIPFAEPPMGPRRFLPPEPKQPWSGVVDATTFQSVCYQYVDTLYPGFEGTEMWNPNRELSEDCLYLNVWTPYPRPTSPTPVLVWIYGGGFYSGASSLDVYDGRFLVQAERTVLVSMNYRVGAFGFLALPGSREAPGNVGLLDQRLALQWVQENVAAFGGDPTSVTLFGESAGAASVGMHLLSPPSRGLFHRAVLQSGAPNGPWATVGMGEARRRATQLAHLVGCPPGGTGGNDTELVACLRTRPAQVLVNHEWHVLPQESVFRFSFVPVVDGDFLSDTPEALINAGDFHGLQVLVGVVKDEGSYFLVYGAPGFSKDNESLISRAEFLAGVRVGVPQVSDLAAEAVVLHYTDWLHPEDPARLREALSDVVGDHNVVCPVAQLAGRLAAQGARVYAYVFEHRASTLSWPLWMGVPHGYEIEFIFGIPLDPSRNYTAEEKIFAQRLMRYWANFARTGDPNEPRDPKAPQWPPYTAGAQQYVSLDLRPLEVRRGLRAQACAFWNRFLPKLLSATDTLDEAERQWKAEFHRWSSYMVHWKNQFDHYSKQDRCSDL
# Chain of UniProt P18089 (whole entry, looked up): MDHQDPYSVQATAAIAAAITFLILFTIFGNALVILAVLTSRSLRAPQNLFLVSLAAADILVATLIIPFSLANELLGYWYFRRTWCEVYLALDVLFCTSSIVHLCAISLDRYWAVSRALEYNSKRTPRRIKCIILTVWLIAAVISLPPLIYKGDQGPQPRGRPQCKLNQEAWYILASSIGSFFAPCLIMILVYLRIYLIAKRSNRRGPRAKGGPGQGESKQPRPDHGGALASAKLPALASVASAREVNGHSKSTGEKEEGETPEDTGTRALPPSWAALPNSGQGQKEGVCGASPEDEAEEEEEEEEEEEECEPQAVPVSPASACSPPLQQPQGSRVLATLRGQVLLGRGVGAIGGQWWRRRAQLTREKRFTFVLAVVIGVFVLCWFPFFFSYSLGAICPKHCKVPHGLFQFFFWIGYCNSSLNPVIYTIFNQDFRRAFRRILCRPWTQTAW
# Chain of UniProt Q99558 (whole entry, looked up): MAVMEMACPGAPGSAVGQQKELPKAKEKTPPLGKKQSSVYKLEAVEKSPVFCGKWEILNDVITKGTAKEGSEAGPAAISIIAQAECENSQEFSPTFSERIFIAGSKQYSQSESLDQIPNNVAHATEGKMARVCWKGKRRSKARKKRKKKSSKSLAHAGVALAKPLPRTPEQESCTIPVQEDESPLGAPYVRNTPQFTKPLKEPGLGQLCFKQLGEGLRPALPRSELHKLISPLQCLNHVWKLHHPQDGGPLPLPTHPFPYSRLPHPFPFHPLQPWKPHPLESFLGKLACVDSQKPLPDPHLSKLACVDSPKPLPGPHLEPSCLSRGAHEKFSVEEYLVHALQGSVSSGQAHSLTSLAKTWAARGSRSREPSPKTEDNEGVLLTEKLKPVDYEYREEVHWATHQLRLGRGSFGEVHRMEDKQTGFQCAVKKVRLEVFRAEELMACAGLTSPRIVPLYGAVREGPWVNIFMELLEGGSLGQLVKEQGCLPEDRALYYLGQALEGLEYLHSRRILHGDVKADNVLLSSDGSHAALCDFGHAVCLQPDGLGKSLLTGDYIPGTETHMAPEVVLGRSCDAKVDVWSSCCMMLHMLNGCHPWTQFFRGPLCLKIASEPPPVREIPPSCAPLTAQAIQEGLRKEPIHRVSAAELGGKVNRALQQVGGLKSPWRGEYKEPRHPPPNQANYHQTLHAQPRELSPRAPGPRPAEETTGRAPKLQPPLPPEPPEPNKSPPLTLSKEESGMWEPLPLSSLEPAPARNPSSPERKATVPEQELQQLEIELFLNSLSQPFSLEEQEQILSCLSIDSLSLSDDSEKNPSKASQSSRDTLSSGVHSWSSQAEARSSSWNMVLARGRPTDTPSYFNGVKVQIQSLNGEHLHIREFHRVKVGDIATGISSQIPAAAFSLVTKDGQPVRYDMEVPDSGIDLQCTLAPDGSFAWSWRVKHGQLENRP
# Chain of UniProt P28335 (whole entry, looked up): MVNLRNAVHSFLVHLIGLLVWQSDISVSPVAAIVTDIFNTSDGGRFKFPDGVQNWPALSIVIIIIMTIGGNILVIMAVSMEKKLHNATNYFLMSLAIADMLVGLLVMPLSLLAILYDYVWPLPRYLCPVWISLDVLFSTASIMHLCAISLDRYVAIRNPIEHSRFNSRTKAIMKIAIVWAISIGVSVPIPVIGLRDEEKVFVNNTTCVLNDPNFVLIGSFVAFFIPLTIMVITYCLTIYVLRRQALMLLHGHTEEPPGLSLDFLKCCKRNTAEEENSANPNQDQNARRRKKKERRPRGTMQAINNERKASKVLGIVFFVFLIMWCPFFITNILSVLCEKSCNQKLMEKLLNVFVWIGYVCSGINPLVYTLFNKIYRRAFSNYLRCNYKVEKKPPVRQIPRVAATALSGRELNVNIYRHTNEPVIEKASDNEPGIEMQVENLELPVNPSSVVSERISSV
SMILES,target,assay,conditions,endpoint,result
O=C(Nc1ccc(I)cc1)Nc1ccc2c(c1)C=CCP(=O)(O)O2,CA1,"enzyme activity, inhibitor, stopped-flow",,Ki,> 10000 nM
Nc1ncc(-c2nc(N3CCOCC3)nc(N3CCOCC3)n2)c(C(F)F)n1,"EGFR (Homo sapiens, UniProt P00533, L858R/T790M)","cell-free assay, competition with immobilised ligand",10 µM,remaining binding,74%
COc1ccc(C(=O)Nc2ccc3c(c2)C=CCP(=O)(O)O3)cc1,"CA2 (Homo sapiens, UniProt P00918)","enzyme activity, inhibitor, stopped-flow",,Ki,> 10000 nM
CC/C(=C(\c1ccccc1)c1ccc(OCCN(C)C)cc1)c1ccccc1,TMEM97,"ligand displacement, radioligand",,Ki,407 nM
[2H]c1c([2H])c([C@]2([2H])CCCN2C(=O)C(C)(C)Oc2ccc3cn[nH]c3c2)c([2H])c([2H])c1C([2H])([2H])[2H],"MAP3K14 (Homo sapiens, UniProt Q99558)","binding, competition with immobilised ligand",1 µM,remaining binding,95%
CC(C)(C)[C@H](NC(=O)[C@H](CCCNC(=N)N)NC(=O)Cc1ccc(CNC(=N)N)cc1)C(=O)N[C@@H](CCCCN)C(=O)NCc1ccc(C(=N)N)cc1,"Coagulation factor X, trypsin-like site (F10, Homo sapiens, UniProt P00742)","enzyme activity, inhibitor",pH 8,Ki,> 3000 nM and 8000 nM
OC[C@@]12C[C@@H]1[C@@H](n1cnc3c(NCc4ccccc4)nc(Cl)nc31)[C@H](O)[C@@H]2O,"HTR2C (Homo sapiens, UniProt P28335)","ligand displacement, radioligand",,Ki,326 nM
CCN(CC)CCOc1ccc(C(=C(Cl)c2ccccc2)c2ccccc2)cc1,TMEM97,"ligand displacement, radioligand",,Ki,895 nM
CS(=O)(=O)N[C@@H](CCC(N)=O)C(=O)N[C@@H](Cc1ccccc1)C(=O)N[C@@H](CCCNC(=N)N)C(=O)c1nccs1,FURIN,cell-free assay,,Ki,> 10000 nM
CN(C)CC[C@@H](c1ccc(Cl)cc1)c1ccccn1,TMEM97,"ligand displacement, radioligand",,Ki,4870 nM
N#Cc1c(F)cccc1N1CCN(c2ccc(O)cc2)CC1,"PFF0160c (Plasmodium falciparum, UniProt Q08210, E182D)","enzyme activity, inhibitor, absorbance",,IC50,> 10000 nM
O=C(Nc1ccccc1)Nc1ccc2c(c1)C=CCP(=O)(O)O2,CA1,"enzyme activity, inhibitor, stopped-flow",,Ki,> 10000 nM
CCCN(Cc1nnc(-c2cccs2)o1)C(=O)C1COc2ccccc2O1 (stereo not drawn),"PFF0160c (Plasmodium falciparum, UniProt Q08210)","enzyme activity, inhibitor, absorbance",,IC50,1150 nM
O=C(Nc1ccc2c(c1)C=CCP(=O)(O)O2)c1ccc(Br)cc1,CA1,"enzyme activity, inhibitor, stopped-flow",,Ki,> 10000 nM
CC(C)(C)[C@]1(O)CCN2C[C@H]3c4ccccc4CCc4cccc(c43)[C@@H]2C1,TMEM97,"ligand displacement, radioligand",,Ki,1740 nM
N=C(N)NCCC[C@H](NC(=O)[C@H](Cc1ccccc1)NC(=O)[C@H](CCC(N)=O)NC(=O)OCc1ccccc1)C(=O)c1nccs1,FURIN,cell-free assay,,Ki,> 10000 nM
O=C(Nc1ccc(F)cc1)Nc1ccc2c(c1)C=CCP(=O)(O)O2,CA1,"enzyme activity, inhibitor, stopped-flow",,Ki,> 10000 nM
COc1cc2c(cc1OC)CN(CCc1ccc(NC(=O)c3cccc4c(=O)c5cccc(OC)c5[nH]c34)cc1)CC2,"ADRA2B (Homo sapiens, UniProt P18089)",cell-free assay,,Ki,806 nM
Cc1nn(C)cc1-c1nc2c(N3CCN(Cc4ccc(Cl)cc4)CC3)c(Cl)cnc2[nH]1,"Tyrosine-protein kinase ABL1, phosphorylated (ABL1, Homo sapiens, UniProt P00519, H396P)","binding, competition with immobilised ligand",1 µM,remaining binding,99%
CC(C)c1cc2c(c(O)c1O)[C@@]13CCCC(C)(C)[C@@H]1C[C@@H]2OC3=O,"ACHE (Homo sapiens, UniProt P22303)","enzyme activity, inhibitor",,Ki,1.3 nM
COC(=O)C1(c2ccc(C)cc2)CC1CN1CCC(O)(c2ccccc2)CC1 (stereo not drawn),TMEM97,"ligand displacement, radioligand",,Ki,303 nM

# Some of these lines once more:
SMILES,target,assay,conditions,endpoint,result
COC(=O)C1(c2ccc(C)cc2)CC1CN1CCC(O)(c2ccccc2)CC1 (stereo not drawn),TMEM97,"ligand displacement, radioligand",,Ki,303 nM
O=C(Nc1ccc2c(c1)C=CCP(=O)(O)O2)c1ccc(Br)cc1,CA1,"enzyme activity, inhibitor, stopped-flow",,Ki,> 10000 nM
